Assay results from different studies.
Each numbered part is a random draw from the data of one study; scales do not carry over between parts. Changes are numbered by the printed parent chain.
UniProt Q15349, sequence (whole entry, looked up): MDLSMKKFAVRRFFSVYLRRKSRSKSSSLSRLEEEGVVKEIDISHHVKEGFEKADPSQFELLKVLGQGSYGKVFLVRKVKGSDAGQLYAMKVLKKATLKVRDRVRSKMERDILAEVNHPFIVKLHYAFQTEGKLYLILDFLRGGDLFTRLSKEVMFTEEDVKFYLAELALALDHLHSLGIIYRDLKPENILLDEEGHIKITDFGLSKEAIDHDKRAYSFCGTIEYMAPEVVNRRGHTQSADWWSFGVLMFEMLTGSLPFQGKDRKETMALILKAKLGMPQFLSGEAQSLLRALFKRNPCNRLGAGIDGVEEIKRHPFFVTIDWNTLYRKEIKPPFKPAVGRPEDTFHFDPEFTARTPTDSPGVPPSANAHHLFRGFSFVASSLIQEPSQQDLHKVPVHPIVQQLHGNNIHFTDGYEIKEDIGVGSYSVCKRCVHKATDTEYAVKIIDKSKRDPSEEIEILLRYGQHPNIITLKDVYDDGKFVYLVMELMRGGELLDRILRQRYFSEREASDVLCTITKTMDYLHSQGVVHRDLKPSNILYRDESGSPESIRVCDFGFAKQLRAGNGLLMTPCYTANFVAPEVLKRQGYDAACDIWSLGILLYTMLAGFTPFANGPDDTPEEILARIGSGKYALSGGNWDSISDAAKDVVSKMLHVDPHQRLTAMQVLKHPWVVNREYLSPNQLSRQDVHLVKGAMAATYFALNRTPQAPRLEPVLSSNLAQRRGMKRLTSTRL

Sample 1
Target: vanadate, free oxyanion
Method: microfluidic competitive inhibition
Sample: in vitro, cell-free expressed
Concentration: not given
Setting: derived from inhibition constants, unchanged parent 676 nM
Direction: lower = stronger binding
Starting sequence: PafA, mature enzyme, eGFP fusion (Elizabethkingia meningoseptica, UniProt Q9KJX5); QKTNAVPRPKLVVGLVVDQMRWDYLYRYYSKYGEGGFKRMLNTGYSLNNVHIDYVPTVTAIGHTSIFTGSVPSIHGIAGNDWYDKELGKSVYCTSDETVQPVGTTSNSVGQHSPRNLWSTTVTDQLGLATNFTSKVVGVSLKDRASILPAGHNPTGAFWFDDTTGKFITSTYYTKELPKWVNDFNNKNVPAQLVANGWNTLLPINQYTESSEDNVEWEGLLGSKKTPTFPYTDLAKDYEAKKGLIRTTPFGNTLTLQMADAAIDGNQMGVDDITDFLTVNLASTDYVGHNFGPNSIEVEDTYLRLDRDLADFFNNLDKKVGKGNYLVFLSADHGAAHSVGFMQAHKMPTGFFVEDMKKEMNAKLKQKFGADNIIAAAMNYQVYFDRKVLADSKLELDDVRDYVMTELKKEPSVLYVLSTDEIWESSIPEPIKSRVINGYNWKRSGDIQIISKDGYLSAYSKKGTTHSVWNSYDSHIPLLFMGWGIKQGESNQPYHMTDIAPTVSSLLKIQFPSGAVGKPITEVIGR
Substitution | oxyanion analog dissociation constant
L303G | 870 nM
N266V | 640 nM
A331G | 1.22 µM
T349G | 656 nM
E297G | 815 nM
S467V | 2.73 µM
N185V | 650 nM
V516G | 589 nM

Sample 2
Target: CCND3, cyclin fold, Cln2 fusion (human)
Method: yeast growth competition, sequencing
Sample: yeast
Setting: weak parent motif
Reference: not given
Direction: higher = stronger binding
Starting sequence: viral docking peptide; KGVKRKLFAEDSS; partner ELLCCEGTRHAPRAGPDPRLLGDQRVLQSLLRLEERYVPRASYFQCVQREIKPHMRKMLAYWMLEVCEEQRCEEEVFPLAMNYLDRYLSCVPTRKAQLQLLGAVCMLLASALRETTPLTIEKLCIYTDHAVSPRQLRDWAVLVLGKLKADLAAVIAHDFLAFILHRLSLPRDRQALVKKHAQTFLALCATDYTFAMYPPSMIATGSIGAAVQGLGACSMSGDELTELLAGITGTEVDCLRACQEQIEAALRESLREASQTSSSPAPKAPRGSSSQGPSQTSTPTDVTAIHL
Substitution | normalised enrichment score
E10G | -0.0635
S12D | -0.184
G2R | 0.152
G2E | 0.186
E10Q | 0.0733
R5F | 0.135
K4V | -0.418
L7V | 0.136

Further values, each from its own experiment
SMILES | target or system | effect on | method | concentration | time | endpoint | result
CN1C[C@H](C(=O)N[C@]2(C)O[C@@]3(O)[C@@H]4CCCN4C(=O)[C@H](Cc4ccccc4)N3C2=O)C=C2c3cccc4[nH]cc(c34)C[C@H]21 | HaCaT |  |  | 100 µM | 36 h | viability | 54.4%
Cc1cc(C)c(-n2ccn3nc(-c4cccnc4)cc23)cc1NC(=O)c1cc(C#N)cc(S(F)(F)(F)(F)F)c1 | Ribosomal protein S6 kinase alpha-2, N-terminal kinase domain (RPS6KA2, Homo sapiens, UniProt Q15349) | cell-free assay | competition with immobilised ligand | 0.1 µM |  | remaining binding | 90.9%

For quick reference, copied from above (further values, each from its own experiment):
SMILES | target or system | effect on | method | concentration | time | endpoint | result
CN1C[C@H](C(=O)N[C@]2(C)O[C@@]3(O)[C@@H]4CCCN4C(=O)[C@H](Cc4ccccc4)N3C2=O)C=C2c3cccc4[nH]cc(c34)C[C@H]21 | HaCaT |  |  | 100 µM | 36 h | viability | 54.4%
Cc1cc(C)c(-n2ccn3nc(-c4cccnc4)cc23)cc1NC(=O)c1cc(C#N)cc(S(F)(F)(F)(F)F)c1 | Ribosomal protein S6 kinase alpha-2, N-terminal kinase domain (RPS6KA2, Homo sapiens, UniProt Q15349) | cell-free assay | competition with immobilised ligand | 0.1 µM |  | remaining binding | 90.9%
